Assay results gathered from unrelated publications.
A part holds a random share of what one study measured.

Set 1
Target: Ras GTPase-activating protein-binding protein 1, RRM domain (G3BP1, Homo sapiens, UniProt Q13283)
Chain of UniProt Q13283 (whole entry, looked up): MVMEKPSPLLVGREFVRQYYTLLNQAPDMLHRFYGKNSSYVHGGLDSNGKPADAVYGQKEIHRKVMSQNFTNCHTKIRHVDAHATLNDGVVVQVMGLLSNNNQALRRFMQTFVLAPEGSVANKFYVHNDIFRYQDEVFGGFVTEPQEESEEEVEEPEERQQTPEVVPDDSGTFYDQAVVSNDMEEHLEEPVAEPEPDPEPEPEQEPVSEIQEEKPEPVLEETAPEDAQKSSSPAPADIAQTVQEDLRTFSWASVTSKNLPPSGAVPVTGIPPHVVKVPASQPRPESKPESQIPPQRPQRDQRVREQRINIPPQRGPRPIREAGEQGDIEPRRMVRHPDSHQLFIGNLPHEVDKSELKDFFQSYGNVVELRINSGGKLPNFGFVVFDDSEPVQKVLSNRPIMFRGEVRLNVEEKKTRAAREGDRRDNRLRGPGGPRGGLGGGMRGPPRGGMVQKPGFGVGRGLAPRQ
Technique: RNA Bind-n-Seq
Form: RNA
Matrix: in vitro
Concentration: 1 µM
Notes: whole 134-nt RNA, ends assumed
Together with: 150 mM KCl
Baseline: input library
Direction: higher = stronger binding
Endpoint: log2 enrichment
Shared flanks, not repeated: GGGAGUUCUACAGUCCGACGAUC … UGGAAUUCUCGGGUGUCAAGG
Sequence = GAUUCCCUCCACAUGCUGCACGCGCAUCUCGCCCCCAGGGGCACUGCCUGGAAGAUUCAGGAGCCUGGGCGGCCUUCGCUUACUCUCACC; value = -0.268
Sequence = UAACUUUAGAGGAGGAUCUGAUGGAUAUGGUAGUGGACGUGGAUUUGGGGAUGGCUAUAAUGGGUAUGGAGGAGGACCUGGAGGUGGCAA; value = -0.656
Sequence = UGGGAGGUGGAUUUUGUUUAUUUUUUUAGCUCAUUUCCAGGGGUGGGAAUUUUUUAUUAAUAUGUGUCAUGAAUAAAGUUGUUUUUGAAA; value = 2.13
Sequence = UGGCCCUGGCGGCAUGCGGGGAGGAAGAGGUGGCCUCAUGGAUCGUGGUGGUCCCGGUGGAAUGUUCAGAGGUGGCCGUGGUGGAGACAG; value = 0.888
Sequence = UGCAGAUUGAUGAGUAUGAUCACUCCAAGCCCAUCCAGGGGCAACAGAAGAAGCCCUUUGAGGUGCACUGGAGGAAGCACACCCUGUCCU; value = 0.0252
Sequence = UAAUUAUGUUUUAUUUUCUUUAAUUGCAGGACUUCAUAGACCUCACGUUGUCGAAGACUCAACGAAAGACUCCAACCGUUAUUCAUAAAC; value = -0.585
Sequence = GCAGGUAGUAAAAACAAAUGGAAAUGCUUCGGAUAGUGGCAGGGGUGGGGGUUGCUAAGGAAAGGGUGGGAUGGGAGUGGGUAAAGAGUU; value = 1.14
Sequence = UCAAGUCCUGUGCUACACAUCGUAUGUACCGAAUCGGGAGGGAGGGUUUUUGGGAAAGUAUUAUGUUACGCCGUUCGGAUCUGCACUUCC; value = 0.737
Sequence = CCUGUGCUACACAUCGUAUGUACCGAAUCGGGAAAAAAGGAAAAAAGGGGAAAAAAGGGGAAAGUAUUAUGUUACGCCGUUCGGAUCUGC; value = -0.06
Sequence = UAACUUUAGAGGAGGAUCUGAUGGAUAUGGCAGUGGACGUGGAUUUGGGGAUGGCUAUAAAGGGUAUGGAGGAGGACCUGGAGGUGGCAA; value = -0.464
Sequence = UGUGGAGGAGACGGCCGACUCGACGCUGUGCCACAUCCUGAACCUGUACCGGCGGGCCACCUGGCUGCACCAGGCGCUGCGGGAGGGCAC; value = -0.514
Sequence = AAGUCCUGUGCUACACAUCGUAUGUACCGAAUCGGGAAAAGGAAAAGGGAAAAGGGAAAGUAUUAUGUUACGCCGUUCGGAUCUGCACUU; value = -0.0453
Sequence = CAAGUCCUGUGCUACACAUCGUAUGUACCGAAUCGGGAAAAGGGAAAAGGAAAAGGAAAGUAUUAUGUUACGCCGUUCGGAUCUGCACUU; value = -0.107
Sequence = CAAGUCCUGUGCUACACAUCGUAUGUACCGAAUCGGCCCCGGCCCCGGGCCCCGGGAAAGUAUUAUGUUACGCCGUUCGGAUCUGCACUU; value = -1.25

Set 2
Target: Sal-like protein 4, full length isoform B (SALL4, Homo sapiens, UniProt Q9UJQ4-2, residues 1-616)
Technique: universal PBM
Form: double-stranded DNA, one strand shown
Matrix: in vitro
Concentration: not given
Notes: 8-mer, flanks averaged, mean of replicates
Direction: higher = stronger binding
Endpoint: E-score
Sequence = ACCGGGCT; value = -0.272
Sequence = ACCCCTGG; value = -0.351
Sequence = CTTTTAAA; value = 0.199
Sequence = ACGCCGCT; value = -0.327
Sequence = AATACTTC; value = 0.206
Sequence = GGGCTTGA; value = -0.246
Sequence = ACCCTACT; value = -0.0269
Sequence = AAATGAGC; value = 0.155
Sequence = ATGTCTAC; value = 0.0614
Sequence = GCCCATTA; value = 0.0125
Sequence = CAGGCCAC; value = -0.295
Sequence = ACGGGACG; value = -0.256
Sequence = GGGGCAAA; value = -0.0759
Sequence = CTGGTTTA; value = 0.053
Sequence = ATATTGAT; value = 0.382
Sequence = AGTGCGCG; value = -0.28
Sequence = AAATCGCG; value = 0.0468
Sequence = CTAACTGC; value = -0.158
Sequence = ATGGTGTC; value = 0.0537
Sequence = ATGCTGGG; value = -0.225
Sequence = CCATGAAA; value = 0.15
Sequence = GCGCTCAA; value = -0.164
Sequence = ACTTGTGG; value = -0.0214
Sequence = ACCGCTGC; value = -0.416
Sequence = CGCCAGTA; value = -0.256

Set 3
Organism: Saccharomyces cerevisiae
Effect on: cell growth
Technique: competitive growth deep sequencing
Form: peptide
Notes: peptide tiling library
Together with: cyclin E2-Cln2 fusion
Direction: direction not given
Endpoint: enrichment score
Sequence = LAKRALKYTD; value = -2.2
Sequence = KDDDKAWEYEERDRRS; value = 0.525
Sequence = ISRLFPPRTPGWHQLQ; value = -1.21
Sequence = TSPGPVLLHPSPSTTQ; value = 0.318
Sequence = IQKKLRFEDTLEFVGF; value = -1.14
Sequence = VLLKRLQDVVSERANH; value = -1.24
Sequence = RVSGLLSWTLSRVLWL; value = -0.725
Sequence = KSKHEEEEWTDDDLVE; value = 1.72
Sequence = PFSENVSAVQKLDFSD; value = 1.43
Sequence = LKGRRLVFDN; value = -0.827
Sequence = RSLKLDGLLEEN; value = -0.608
Sequence = SFLIEYEFLIPPSLKP; value = 0.256
Sequence = TRRRLFVENDSP; value = 1.13
Sequence = ESSTVSEEDYFSSHRD; value = 1.82
Sequence = PLRKAKRARLCSSSSS; value = 1.65
Sequence = KRRLDLETDHQY; value = 0.691
Sequence = EPKTLFLGAGDFQF; value = 1.6
Sequence = QDYERRLLRQIVIQNE; value = -0.23
Sequence = SDSTVTKLDFDLEP; value = 1.14
Sequence = ALLRRLQDVANDRGSH; value = 0.203
Sequence = CFRCLLFSFSGRSGVE; value = -0.923
Sequence = KPITLDTTDFQESFVT; value = 1.04
Sequence = RDLFDCDFGDLTPLDF; value = 1.93
Sequence = SPREGHMMDALYAQVK; value = 1.45
Sequence = GQLVIPLDELTLDTSF; value = 2.03

Set 4
Target: RNA binding protein fox-1 homolog 2, RRM domain, GST-SBP tag (RBFOX2, Homo sapiens, UniProt O43251-10, residues 100-194)
Technique: RNA Bind-n-Seq
Form: RNA
Matrix: in vitro
Concentration: 365 nM
Notes: natural RNA segment, single round, ends assumed
Baseline: no-protein control
Direction: higher = stronger binding
Endpoint: RBNS enrichment (R)
Shared flanks, not repeated: GGGAGUUCUACAGUCCGACGAUC … UGGAAUUCUCGGGUGCCAA
Construct (chain): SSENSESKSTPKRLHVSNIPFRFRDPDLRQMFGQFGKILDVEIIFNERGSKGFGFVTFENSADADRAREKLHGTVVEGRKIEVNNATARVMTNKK
Sequence = GUUUCCUUUGGGCUGCCUUUCUAUCACAUUUGUGAAGGAUGGAUUUCUCAGCAGGGCUGAUGCUGCCCAAGAUAAGUAUAUCUGUCCACAUUAGUCAUUUUAGUCGAUUC; value = 0.279
Sequence = AUGGAUAAAUUUGAGUAUAAAGGUUUUGUUAUAAAACUGUUCUUUAGUGUAAGGCUGCAUUGUGGGUUUGGGGGAAAUGUAAAUAAUUUUCUGUGUAAAACAAAUUCAUA; value = 0.573
Sequence = AGAGAAUUGUCCUCUGACCUCCAUGUGCGGUAGCCCACGUGACGCACCCAAUAAUAAUUAAAUAAAUAAAAACAAGGAAUUCUGUUCUUUUGCUUUAUCAGGAACACCAA; value = 0.339
Sequence = AGCUGUUAAUUCUUUCAUUCAUGUCCCUGCUGAGACACUGAUAUUAGCAACUUAGAGUUGGUGAGUUUAAUCUUCAGUCAUACCAGCUCCAAGAGAUGAGGCCUCAGUCC; value = 0.313
Sequence = GGAACCUAAGAGCAUCGGUUGGAGUGUGACCUCUGAUGCCCCUGCAUUCCCGCCACUGUGUCUCUGUGUAUUGAAAGCCUCUCCUGUGACCACAGCCUGUGUUGACAGAU; value = 0.904
Sequence = AUCAAACUAUUCCGUGCCGUGGAUGUUUUCAUUGCCAACGAGGGUGUAAUGAUUUGCUUCUGCACCUUGGUCUAGUGCUGGUUUGUGGUGUUUUUGUUUGUAAAUUAGCC; value = 0.737
Sequence = UUUUUAACUCCAGCUUCCUUUGCUUUUUACUUGACCAAAGCUAAGACAAUAGCCAGAUGGUUAGUGGGGCAGCCAGGCAGGGAGGACCCAGGGCUGGGAUUCUCCAACCU; value = 0.181
Sequence = UGCCUCGACACAGCACUGUGGCCUGUCCCUAUUGCCCAGGCACGCCAUUUCCAAGGGCAGGAAGGGGCAGUGUCCUGAAGCCCAUCUUUUCUGUGACUGUCUUAGGUGAU; value = 0.57
Sequence = AAAAUAGACUACUGCGAUUGAAAUGAACUCAAUAUGUAGUUAAGUUAUAGUUUUCUUCAAUGUAUUUUUAGUUACUUGGGUCACAAAUGUUCAAUUUCAGCAUAUUUUAG; value = 0.733
Sequence = CCCUUGCAGCAAGCACUACAAUGUAUGUGAUCGUCAAUGUGAAUAGCUUAGAAUACUGCAAAGGAUAAGCUAAUUGAAUGCCUUGAAAGUAUUAUCCACUGGUCAGAUGG; value = 0.775
Sequence = AUUAUUAGAUCCACACAGAAGGAGCUCAGUAUUUAGUCCUUUGUUUUUAUUCAGUGAGAACCAAGCUAGCCUUGAGUAAUUUUUAUCUUGUCUUCCUAAAACACUAUUAA; value = 0.858
Sequence = GUCUGUAUGUGGAAGACAUGUUCCCAUGGAUCAUAUGUGAAGAUGUCAAUAAGCUUGCAUUAAGCCACCUGCUUUGUAAGUGGAUUGAUUAAUAAAUAACUUAUAUUUCU; value = 0.46

Set 5
Target: Histone acetyltransferase KAT6A, winged helix 1, GST fusion (KAT6A, Homo sapiens, UniProt Q92794, residues 1-85)
Technique: protein binding microarray
Form: double-stranded DNA, one strand shown
Matrix: in vitro
Concentration: not given
Notes: 8-mer, flanks averaged, mean of 2 arrays, mostly near background
Baseline: not given
Direction: higher = stronger binding
Endpoint: E-score
Construct (chain): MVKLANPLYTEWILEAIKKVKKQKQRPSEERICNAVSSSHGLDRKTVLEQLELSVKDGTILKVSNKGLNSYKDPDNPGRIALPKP
Sequence = AATTGTTG; value = -0.251
Sequence = ACCGCTCG; value = 0.269
Sequence = AAATGTGT; value = -0.113
Sequence = CTTTTTAA; value = -0.151
Sequence = AGTGGTGA; value = -0.135
Sequence = GGCCGTCA; value = 0.319
Sequence = CCGGTAGG; value = 0.0593
Sequence = AACTAACA; value = -0.0394
Sequence = AGAAGAAT; value = -0.173
Sequence = AGCGGCTG; value = 0.239
Sequence = GCAGGTCC; value = -0.04
Sequence = ATCGGGAA; value = 0.246
Sequence = CATTGCTA; value = -0.142
Sequence = TGATGGCA; value = -0.158
Sequence = CCGTATGC; value = 0.32
Sequence = GGTCCCAC; value = 0.0127
Sequence = AGGACGTG; value = -0.0938
Sequence = ACCCACCC; value = -0.0259
Sequence = CTTCTACA; value = -0.208
Sequence = CGATTCAA; value = -0.1
Sequence = GAACCAGC; value = -0.0938
Sequence = CATTCAAC; value = -0.0751
Sequence = AGCGGGGG; value = 0.176
Sequence = CCGAAACA; value = -0.0339
Sequence = AGTGGGGC; value = -0.21

For quick reference, copied from above (set 5):
Sequence = CTTCTACA; value = -0.208
Sequence = AACTAACA; value = -0.0394
Sequence = CGATTCAA; value = -0.1
Sequence = GGCCGTCA; value = 0.319
Sequence = CCGAAACA; value = -0.0339
Sequence = CCGTATGC; value = 0.32
Sequence = CCGGTAGG; value = 0.0593
Sequence = CATTGCTA; value = -0.142
Sequence = AGTGGTGA; value = -0.135
Sequence = CTTTTTAA; value = -0.151
Sequence = ATCGGGAA; value = 0.246
Sequence = ACCGCTCG; value = 0.269
Sequence = AGGACGTG; value = -0.0938
Sequence = AGAAGAAT; value = -0.173
